Measured values from different studies.
Each line is one published result; not all experiments were run side by side.
Organism: Enterococcus faecium

Compound | assay | system | setting | MIC
CC(C)C[C@H](NC(=O)[C@H](CC(N)=O)NC(=O)[C@H](CCCNC(=N)N)NC(=O)[C@@H](CC(C)C)NC(=O)[C@H](Cc1ccccc1)NC(=O)[C@H](CC(=O)O)NC(=O)[C@H](CCCCN)NC(=O)[C@@H](CC(C)C)NC(=O)[C@H](CCCNC(=N)N)NC(=O)[C@H](CCC(N)=O)NC(=O)[C@@H](NC(=O)[C@@H](CC(C)C)NC(=O)[C@H](CCCNC(=N)N)NC(=O)[C@H](CCCCN)NC(=O)[C@H](Cc1ccccc1)NC(=O)CN)C(C)C)C(=O)N[C@H](C(N)=O)C(C)C | broth microdilution | ATCC 51559 |  | > 100 µM
CN(C)c1cc(CNCC2CCCCC2)c(O)c2c1C[C@H]1C[C@H]3[C@H](N(C)C)C(O)=C(C(N)=O)C(=O)[C@@]3(O)C(O)=C1C2=O |  | 494, Tet M and Tet L |  | 2 µg/mL
CNC(CC(C)C)C(=O)NC1C(=O)NC(CC(N)=O)C(=O)NC2C(=O)NC3C(=O)NC(C(=O)NC(C(=O)NCCCNC(=N)N)c4cc(O)cc(O)c4-c4cc3ccc4O)C(O)c3ccc(c(Cl)c3)Oc3cc2cc(c3OC2OC(CO)C(O)C(O)C2OC2CC(C)(N)C(O)C(C)O2)Oc2ccc(cc2Cl)C1O (centres unmarked) |  | ATCC BAA-2317 VanA | with: +NaH2PO4 100 µg/mL | 4 µg/mL
CN(C)c1cc(CNC(=O)OCC(C)(C)C)c(O)c2c1C[C@H]1C[C@H]3[C@H](N(C)C)C(O)=C(C(N)=O)C(=O)[C@@]3(O)C(O)=C1C2=O |  | 494, Tet M and Tet L |  | 4 µg/mL
CNC(CC(C)C)C(=O)NC1C(=O)NC(CC(N)=O)C(=O)NC2C(=O)NC3C(=O)NC(C(=O)NC(C(=O)NCCCCNC(=N)N)c4cc(O)cc(O)c4-c4cc3ccc4O)C(O)c3ccc(c(Cl)c3)Oc3cc2cc(c3OC2OC(CO)C(O)C(O)C2OC2CC(C)(N)C(O)C(C)O2)Oc2ccc(cc2Cl)C1O (centres unmarked) | broth microdilution | ATCC BAA-2317 VanA |  | 4 µg/mL
CCOC(=O)c1ccc2c(c1)n(CC)[c]([Au-]([Cl])([Cl])[Cl])[n+]2CC | broth dilution | DSM 20477 | 20 h, 37 °C | 3.6 µM
CNC(CC(C)C)C(=O)NC1C(=O)NC(CC(N)=O)C(=O)NC2C(=O)NC3C(=O)NC(C(=O)NC(C(=O)NCCCNC(=N)N)c4cc(O)cc(O)c4-c4cc3ccc4O)C(O)c3ccc(c(Cl)c3)Oc3cc2cc(c3OC2OC(CO)C(O)C(O)C2OC2CC(C)(NCc3ccc(-c4ccc(Cl)cc4)cc3)C(O)C(C)O2)Oc2ccc(cc2Cl)C1O (centres unmarked) |  | ATCC BAA-2317 VanA | −POPE | 0.3 µg/mL
CN(C)c1cc(CNCCC(C)(C)C)c(O)c2c1C[C@H]1C[C@H]3[C@H](N(C)C)C(O)=C(C(N)=O)C(=O)[C@@]3(O)C(O)=C1C2=O |  | 494, Tet M and Tet L |  | 1 µg/mL
CCc1[nH]c(C(=O)N[C@@H]2CCN(c3nnc(C(C)(C)O)s3)C[C@@H]2OC)nc1Cl |  | EFM19-1 |  | 0.5 µg/mL
CC1CCN(CCCN2/C(=C/c3cc(/C=C/c4c[nH]c5ccccc45)[n+](C)c4ccccc34)Sc3ccccc32)CC1 | microbial growth, broth dilution | ATCC49624 |  | 32 µg/mL
C=C(NC(=O)C(=C)NC(=O)c1csc(C2=NC3c4csc(n4)C4NC(=O)c5csc(n5)C(C(C)(O)C(C)O)NC(=O)C5CSC(=N5)C(=CC)NC(=O)C(C(C)O)NC(=O)c5csc(n5)C3(CC2)NC(=O)C(C)NC(=O)C(=C)NC(=O)C(=CC)NC(=O)C(C(C)CC)NC2C=Cc3c(C(C)O)cc(nc3C2O)C(=O)OC4C)n1)C(N)=O (centres unmarked) | broth microdilution | ATCC 12952 VRE | 18 h, 37 °C | 0.11 µg/mL

Excerpt of the above:
Compound | assay | system | setting | MIC
CCOC(=O)c1ccc2c(c1)n(CC)[c]([Au-]([Cl])([Cl])[Cl])[n+]2CC | broth dilution | DSM 20477 | 20 h, 37 °C | 3.6 µM
CC(C)C[C@H](NC(=O)[C@H](CC(N)=O)NC(=O)[C@H](CCCNC(=N)N)NC(=O)[C@@H](CC(C)C)NC(=O)[C@H](Cc1ccccc1)NC(=O)[C@H](CC(=O)O)NC(=O)[C@H](CCCCN)NC(=O)[C@@H](CC(C)C)NC(=O)[C@H](CCCNC(=N)N)NC(=O)[C@H](CCC(N)=O)NC(=O)[C@@H](NC(=O)[C@@H](CC(C)C)NC(=O)[C@H](CCCNC(=N)N)NC(=O)[C@H](CCCCN)NC(=O)[C@H](Cc1ccccc1)NC(=O)CN)C(C)C)C(=O)N[C@H](C(N)=O)C(C)C | broth microdilution | ATCC 51559 |  | > 100 µM
